Assay results gathered from unrelated publications.
Numbered parts are unrelated; each lists some results of a single study.

Sample 1 — technique: RNA Bind-n-Seq; molecule type: RNA; sample: in vitro; concentration: 200 nM; notes: whole 134-nt RNA, ends assumed; together with: 150 mM LiCl; relative to: input library; reading: higher = stronger binding; all molecules: 7-deaza-guanosine replaces G
Target: Ras GTPase-activating protein-binding protein 1, full length (G3BP1, Homo sapiens, UniProt Q13283)
Chain of UniProt Q13283 (whole entry, looked up): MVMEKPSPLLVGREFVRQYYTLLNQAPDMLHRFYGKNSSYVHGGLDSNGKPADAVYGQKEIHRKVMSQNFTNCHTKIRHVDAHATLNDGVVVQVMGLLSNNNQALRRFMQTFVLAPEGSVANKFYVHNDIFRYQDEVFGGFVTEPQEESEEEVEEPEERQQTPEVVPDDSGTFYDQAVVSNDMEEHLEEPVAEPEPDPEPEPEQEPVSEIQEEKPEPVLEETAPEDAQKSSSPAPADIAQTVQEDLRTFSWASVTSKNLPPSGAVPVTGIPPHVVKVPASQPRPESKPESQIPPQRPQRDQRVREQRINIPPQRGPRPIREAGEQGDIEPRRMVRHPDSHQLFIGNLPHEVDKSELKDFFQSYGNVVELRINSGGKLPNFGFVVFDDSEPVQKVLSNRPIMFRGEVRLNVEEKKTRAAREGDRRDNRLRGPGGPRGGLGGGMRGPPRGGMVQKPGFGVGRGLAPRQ
Oligonucleotide	log2 enrichment
GGGAGUUCUACAGUCCGACGAUCCAGAGACAACACGCACCCACACAGACACAGAGGGAAGGGGUUGGGAUGGGGACAGGGUGCACAGCAGGGCGGGGUAGGACCCCAGCCCCUUGGAAUUCUCGGGUGUCAAGG	0.526
GGGAGUUCUACAGUCCGACGAUCACCAUGCAGGUGGGCAUCUUUGGGAAGUGGGGCAAGGGGGGGAUAGGAAGGGGGGUAACACUUUGGGAACAGGUGGUCCCAGGUCGUUUCUGGAAUUCUCGGGUGUCAAGG	0.282
GGGAGUUCUACAGUCCGACGAUCUGGCCCUGGUGGCAUGCGGGGAGGAAGAGGUGGCCUCAUGGAUCGUGGUGGUCCCGGUGGAAUGUUCAGAGUUGGCCGUGGUGGAGACAGUGGAAUUCUCGGGUGUCAAGG	-0.0403
GGGAGUUCUACAGUCCGACGAUCUCCUGUGCUACACAUCGUAUGUACCGAAUCAAACCCCCAAACCCCCAAAUUUUUUUAAAAAAGUAUUAUGUUACGCCGUUCGGAUCUGCAUGGAAUUCUCGGGUGUCAAGG	1.05

Sample 2 — technique: DNA-protein interaction ELISA; molecule type: double-stranded DNA, one strand shown; sample: in vitro, bacterial lysate; concentration: not given; notes: whole dsDNA probe, crude lysate protein; relative to: highest signal in screen; reading: higher = stronger binding
Target: Probable WRKY transcription factor 33, C-terminal DNA-binding domain (WRKY33, Arabidopsis thaliana, UniProt Q8S8P5, residues 346-449)
Residues (chain): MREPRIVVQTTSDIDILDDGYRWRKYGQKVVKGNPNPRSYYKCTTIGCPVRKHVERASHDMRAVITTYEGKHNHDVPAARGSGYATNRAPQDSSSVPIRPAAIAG
Oligonucleotide	relative absorbance
AAAAAATCATTTTATTTTGCCTTTCTAAAA	30.9 % of maximum
AAAAAATTCTAACTTAGCCTATGTCCAAAA	57.9 % of maximum
AAAAAAATCACGGTTCGACCTCCAGCAAAA	40.5 % of maximum

Sample 3 — technique: protein binding microarray; molecule type: double-stranded DNA, one strand shown; sample: in vitro; concentration: not given; relative to: not given; reading: higher = stronger binding
Target: Histone acetyltransferase KAT6A, both winged helices, GST fusion (KAT6A, Homo sapiens, UniProt Q92794, residues 1-181)
Notes: 8-mer, flanks averaged, mean of 2 arrays, mostly near background
Target sequence (chain): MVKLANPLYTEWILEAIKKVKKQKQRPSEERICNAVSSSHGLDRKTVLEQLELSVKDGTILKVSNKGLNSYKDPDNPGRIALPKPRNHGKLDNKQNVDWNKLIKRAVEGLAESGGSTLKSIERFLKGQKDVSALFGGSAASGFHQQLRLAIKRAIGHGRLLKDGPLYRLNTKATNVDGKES
Oligonucleotide	E-score
ATCTGAAG	-0.0447
ATGTTCTG	-0.0671
ACAAAGCT	-0.0109
CCATCTGA	-0.202
GAAAGCTC	-0.144

Further values, each from its own experiment
Substance	target	assay	system	setting	scale	measurement	value
PhoQ, residues 284 288 289 292 302 303 ASVMEA	PhoP, residues 12 14 15 18 19 LYHSL (Escherichia coli, UniProt P23836)	Sort-seq, refers to: YFP reporter	E. coli	PhoQ-PhoP variant library, together with: 10 µM Mg2+	relative to: high Mg2+ state, higher = stronger signaling	fold induction	20.5

Excerpt of the above (sample 1):
Oligonucleotide	log2 enrichment
GGGAGUUCUACAGUCCGACGAUCUCCUGUGCUACACAUCGUAUGUACCGAAUCAAACCCCCAAACCCCCAAAUUUUUUUAAAAAAGUAUUAUGUUACGCCGUUCGGAUCUGCAUGGAAUUCUCGGGUGUCAAGG	1.05
